Published values pooled from the literature.
Each numbered part is a random draw from the data of one study; scales do not carry over between parts.

Series 1 — method: protein binding microarray; molecule type: double-stranded DNA, one strand shown; sample: in vitro; tested at: not given; baseline: not given; direction: higher = stronger binding
Target: Histone acetyltransferase KAT6A, winged helix 2, GST fusion (KAT6A, Homo sapiens, UniProt Q92794, residues 85-181)
Notes: 8-mer, flanks averaged, mean of 2 arrays, mostly near background
Residues (chain): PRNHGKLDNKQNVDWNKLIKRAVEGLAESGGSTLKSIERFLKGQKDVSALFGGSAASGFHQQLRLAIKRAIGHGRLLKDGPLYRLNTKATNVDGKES
Strand	E-score
ACTGTGAC	-0.0194
AAGAAGGT	-0.0124
CCGGGGCG	0.228
CGCGGGCA	0.254
CAAAGTCC	-0.0103
AGAATCAT	0.0962
ACGTTTAA	-0.0934
CTTTATAA	0.0215
GAACCATA	0.0256
GGGAATGA	-0.0543
AGTGAGTG	0.0419
ATAGTTGC	-0.0259
AAGTAGGC	0.0247
GCGGACGA	0.284
CGCAACTC	0.181
CGAGCTGC	0.117
AGAGTGAT	-0.00353

Series 2 — method: RNA Bind-n-Seq; molecule type: RNA; sample: in vitro; tested at: 365 nM; baseline: no-protein control; direction: higher = stronger binding
Target: RNA binding protein fox-1 homolog 2, RRM domain, GST-SBP tag (RBFOX2, Homo sapiens, UniProt O43251-10, residues 100-194)
Notes: natural RNA segment, single round, ends assumed
All sequences stand within: GGGAGUUCUACAGUCCGACGAUC … UGGAAUUCUCGGGUGCCAA
Construct (chain): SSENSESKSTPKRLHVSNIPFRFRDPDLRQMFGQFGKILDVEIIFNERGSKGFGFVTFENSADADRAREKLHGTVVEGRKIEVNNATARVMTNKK
Strand	RBNS enrichment (R)
CAAGAACCAACAUCACUGCUCUUUUAGAUAAACCUCUGCCCUCCACUCCUUGCUUGAGUGGGUUAAAGGAACUAACAGUUGUCCCUUUAGGAGGACAAAAUGGGGUCAAG	0.335
GAUAAACAUUCCAUCCCCUGCUGUUCUGAUAAUGUGAAGUCAGAUGAGGGUUCCCAGGUUAUGUGGCACCUGCGGAAACCAUGUCUAGAGUCGUUUCUAUGUAGCUUGGC	1.43
CGGAGCAGUUGGCCUGUGCUUGGAGGCCUCAGAUAGACCUGUGACCUGGUCUGGUCAGGCAAUGCCCUGCGGCUCUGGAAAGCAACUUCAUCCCAGCUGCUGAGGCGAAA	1.03
GUGCCGGGAUGGGAGGGCUGUGUUAUGAUUACAGCAUGUUUGGCAUUUUGUACAUUCAAUAGAGGAAAGACUAACAUAUGCACUUUAUCUCAAGAUCUUCCAGUGCAUAU	7.47
GAGAAGGUAACCUUUGCCUACAUAUGGCUGUCCUACAGGGUCUCCCUUGCCUGCAGUGGGAGAGUUGCCCAGUGGUUCCCCAUCCCCCAUUAUAUUCUAAUGCUAAAUCA	0.571
GCUGACUGCUCCAGACCACUGCAGUGACGACGCCUAGCAGUCCUGCCCUGCUGCUGCUGCCGCCCCGCUACAGAGGCAAUGUGACCAGUCACAGGGACAGAUCACAUCUC	0.372
GAGCUUUCUCUCGUGCAGUUUCAUCAGAGGUUUGGGAGGAGGGCAAGUGGCCGCUAGAGAAGAAUACAAUUUAGCAGCAACUGCCGGCUCUUUGGGCAGAGGUUUGAUUU	0.539
UUUGUACAUUUUUGUAUGUUAAUUUAUGAAUGAUUUUUUCAGUAAAAAAUACAUAUUCAAUAACCAACCUUGGUAGUCGUCUCUCUGUCUAGCUGCCUCUCAGGGUGGUU	0.487
AACCUUUUAACUAUAUAUAAAGUACUUUUUUGGUUUCUUUCUCACCACUUUUAUUCAAAAGUACUUUUAACAUACCAAUACAUAGUCUGUCUGAUGGGAGUAUAAAUUGG	0.607
CGGAUAGACAGAUCAAAUGGUGGCCCAAUAGCGAGCCUUCUCCCUGCUCCCUCCCUUGACACAGCUUGCUUAUGUUAUUUCAGAGUGUAGGUGACUUGUUUACACAGCUU	1.11
CCAUGGUACAGACUGUUCCAGAUCACCAAGAAAGGUACUUUCAGGAUCCCAGUGCCUAGCACUGGGUAAGCUACCCCAGACAACUAGCCUUCCUUAUACCCAAACGCUGG	0.307
UCUGUGAGUCCCUCUGGGCGGCUCGUGUACUGAUCGGAUCGGCACCAUGACACUUCCCCUAGACUGUGACUCCCAAAUGCAUAAUAUUAAUCUCAUUUGGCUUCUGGUUU	2.28

Series 3 — method: universal PBM; molecule type: double-stranded DNA, one strand shown; sample: in vitro; tested at: not given; direction: higher = stronger binding
Target: Sal-like protein 4, full length isoform B (SALL4, Homo sapiens, UniProt Q9UJQ4-2, residues 1-616)
Notes: 8-mer, flanks averaged, mean of replicates
Strand	E-score
GTTACTTA	0.159
ATATGACC	0.23
AAGTGGGG	-0.0862
CGCGCCAA	-0.149
CAAAGACC	0.0116
CTTAAGTA	0.152
CGTTGGGA	-0.0714
GCTGTTAC	-0.211
CTTCTGCA	0.0232
GTGCTCGA	-0.163
AAGTCGGT	-0.0869
GAGTCCGC	-0.319
CGTACCAG	-0.19
GTAATGTA	0.253
GACGAAGC	-0.137
AGAGTAAG	-0.0295
CGCTTGTC	-0.187
GTTGGCGA	-0.0929
CAGGAAAG	-0.099
CTAGGGGA	-0.171
CGAATGCC	-0.203
GTGGTTTA	0.0816
CAATCAGA	-0.0534

Series 4 — target: human cyclin A2; method: competitive growth deep sequencing; molecule type: peptide; organism: Saccharomyces cerevisiae; strain: cyclin A2-Cln2 fusion strain; notes: peptide tiling library; direction: direction not given
Molecule	enrichment score
GPVKLEFDVSDGAT	0.705
VLPGGVPSPGASLTSM	0.0161
YLYLLLTQSLWCRV	-0.197
KRCATPVIIDEILPSK	0.192
AKRSLGFLPQPVPL	0.316
NEGVSNAVRRSLYIRD	-0.263
GTPKRCLDLSNLSSGE	0.148
LENIEPLQVSFAVLSS	1.13
PHKTFRKLRLFDTPHT	-0.605
KVRRNLFNQELLSP	1.97
ASVLSKPIFCFVKD	0.411
RTEALEQGGLPKKLIF	1.54
SPPRGRRLFPPGPAGF	-0.0515
QYQVVDDIVSKLVFDF	0.303

Series 5 — method: protein-binding microarray; molecule type: double-stranded DNA, one strand shown; sample: in vitro; tested at: 2540 nM top; notes: 60-bp whole probe; together with: salmon DNA 0.4 mg/ml; baseline: random background probes; direction: higher = stronger binding; all sequences stand within: GCCTAGCAC … GTCTTGATTCGCTTGACGCTGCTG
Target: Interferon regulatory factor 3, full length, phosphomimetic (IRF3, Homo sapiens, UniProt Q14653, residues 1-427, S386D/S396D/S398D/S402D/T404D/S405D)
Construct (chain): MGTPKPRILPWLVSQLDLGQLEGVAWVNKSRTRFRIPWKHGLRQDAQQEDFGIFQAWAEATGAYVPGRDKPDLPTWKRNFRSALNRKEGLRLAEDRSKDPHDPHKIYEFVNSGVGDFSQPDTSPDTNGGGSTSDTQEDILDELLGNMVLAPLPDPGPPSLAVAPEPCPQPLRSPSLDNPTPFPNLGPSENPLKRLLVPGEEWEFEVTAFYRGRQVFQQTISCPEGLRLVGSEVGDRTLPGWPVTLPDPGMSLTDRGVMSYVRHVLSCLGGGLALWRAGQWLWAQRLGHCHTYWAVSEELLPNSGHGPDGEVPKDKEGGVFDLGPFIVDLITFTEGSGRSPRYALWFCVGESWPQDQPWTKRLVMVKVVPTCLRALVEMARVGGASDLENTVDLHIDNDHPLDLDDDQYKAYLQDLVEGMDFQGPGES
Strand	fitted relative affinity [z-score]
GACGGTCTCCTTACCCTGACGTGCTAG	1.81
TCAAGTTTTCTTTTCCAACTGTGCTAG	5.56
TCATCTGTCAGTTTTGAACTGTGCTAG	0.953
TTGTTTCTAATATTCTGCTTGTGCTAG	1.69
GAGGATTTCGGGTTTCGAGACGTGCTA	1.62
GAATCTCTCATGTTACATTTGTGCTAG	0.649
GACGGTTTCGTTTCCCTGACGTGCTAG	8.25
TTAGTTCTCGGTATCGGTTAGTGCTAG	2.47
TTAGGTATCCTTTTCCTATAGTGCTAG	8.03
TTAGGCCTCGGTCTCGGTTAGTGCTAG	-0.503
TCACCTTTTCTTTACTGACTGTGCTAG	3.59
TTAGATATCGGGTTTCGATTAGTGCTA	2.07
CACAGAATCCCCTTCTACTCGTGCTAG	1.55
TTAGGACTGGGGTGTCGGTTAGTGCTA	-0.404
GACGGACTAGGGACTGGGGACGTGCTA	-0.784
TTAGGACTGGGGTCTGGGTTAGTGCTA	-1.16

Series 6 — method: protein-binding microarray; molecule type: double-stranded DNA, one strand shown; sample: in vitro; tested at: 0.8 µM; notes: whole 60-bp probe, no competitor; direction: higher = stronger binding; all sequences stand within: … GTCTTGATTCGCTTGACGCTGCTG
Target: Centromere-binding protein 1, full length, N-terminal tag (CBF1, Saccharomyces cerevisiae, UniProt P17106, residues 1-351)
Sequence of UniProt P17106 (whole entry, looked up): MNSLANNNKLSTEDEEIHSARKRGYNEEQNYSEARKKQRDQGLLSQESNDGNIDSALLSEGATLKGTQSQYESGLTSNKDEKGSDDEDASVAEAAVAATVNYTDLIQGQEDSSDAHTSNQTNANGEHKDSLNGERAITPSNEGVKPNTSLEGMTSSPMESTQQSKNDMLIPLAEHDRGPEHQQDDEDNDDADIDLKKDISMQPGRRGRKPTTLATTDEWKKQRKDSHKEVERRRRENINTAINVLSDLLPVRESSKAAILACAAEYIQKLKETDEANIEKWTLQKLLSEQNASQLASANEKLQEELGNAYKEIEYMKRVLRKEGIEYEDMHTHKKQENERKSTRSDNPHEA
Strand	fluorescence intensity [a.u.]
TGTACGAAGCTATTTCATGTGGGTATAGTAGTTAGG	530
CTAAGGTAATTACCTAACGTCACCCACTGAAATTTC	505
CTATATTTCTTACGTGGTGAAAATAAGATCTTATTC	561
CTAAGGATAGTGTGCAACGTGGCATAAGCTATGTTC	588
CTAGGAAATACGTGGAACGTGTAATATGTTGTTTTC	549
GAAGACAGCACTCTGCACGAGCTTTGTGTGTGCTAG	559
GAAGGAGAATATATTGACGTGCACATTAATTATTAG	570
CTAATTATCAAATTTGATGATCACAACCAATGTTTC	531
CTACCGATAATGAATCATCACGATGAATGACTATTC	581
GAATACAGATGTTTTAGGGTGACATAAAATTGATAG	553
GAACATGGTGTCTCTCTCATGATTGTGGTAGCCTAG	538
CCTAACTACTATATATACACCACATAGCTTCGTACA	564
CTAAAGATAAAGCGTCATGTCCACACCAGCTAGTTC	526
CTACCCTGTCGCCATCACCAAGGGTTTCTGCCATTC	478
CTATTTAGTGATCTAGCCGTGACCTTGGCAGCATTC	660
CTAGAATGCGATGGAGGTGATGCTAGTGTGGACTTC	540
GAACCTTGGACTAGTCACGTGGAACGGTAGATCTAG	11200

A few entries again (series 5):
Strand	fitted relative affinity [z-score]
TTAGTTCTCGGTATCGGTTAGTGCTAG	2.47
GACGGTTTCGTTTCCCTGACGTGCTAG	8.25
TTAGGTATCCTTTTCCTATAGTGCTAG	8.03
GACGGACTAGGGACTGGGGACGTGCTA	-0.784
TTGTTTCTAATATTCTGCTTGTGCTAG	1.69
GACGGTCTCCTTACCCTGACGTGCTAG	1.81
TTAGGACTGGGGTCTGGGTTAGTGCTA	-1.16
